Published values from different studies.
Each numbered part is a random draw from the data of one study; scales do not carry over between parts. “And” joins repeats or separate records; there may be more than shown.
Chain of UniProt P62344 (whole entry, looked up): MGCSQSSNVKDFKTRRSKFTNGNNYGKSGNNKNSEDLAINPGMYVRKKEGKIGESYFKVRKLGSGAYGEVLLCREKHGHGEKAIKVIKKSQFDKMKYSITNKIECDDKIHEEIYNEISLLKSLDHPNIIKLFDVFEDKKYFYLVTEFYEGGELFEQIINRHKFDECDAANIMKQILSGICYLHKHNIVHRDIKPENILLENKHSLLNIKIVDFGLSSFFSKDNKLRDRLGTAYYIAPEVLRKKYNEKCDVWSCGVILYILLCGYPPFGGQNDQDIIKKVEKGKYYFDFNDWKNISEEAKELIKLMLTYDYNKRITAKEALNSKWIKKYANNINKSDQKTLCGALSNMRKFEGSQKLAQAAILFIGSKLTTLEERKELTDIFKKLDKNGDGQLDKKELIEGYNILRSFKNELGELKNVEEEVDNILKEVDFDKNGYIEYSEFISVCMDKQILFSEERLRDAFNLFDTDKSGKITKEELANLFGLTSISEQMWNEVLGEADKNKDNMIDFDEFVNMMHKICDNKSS
Chain of UniProt Q9H2K8 (whole entry, looked up): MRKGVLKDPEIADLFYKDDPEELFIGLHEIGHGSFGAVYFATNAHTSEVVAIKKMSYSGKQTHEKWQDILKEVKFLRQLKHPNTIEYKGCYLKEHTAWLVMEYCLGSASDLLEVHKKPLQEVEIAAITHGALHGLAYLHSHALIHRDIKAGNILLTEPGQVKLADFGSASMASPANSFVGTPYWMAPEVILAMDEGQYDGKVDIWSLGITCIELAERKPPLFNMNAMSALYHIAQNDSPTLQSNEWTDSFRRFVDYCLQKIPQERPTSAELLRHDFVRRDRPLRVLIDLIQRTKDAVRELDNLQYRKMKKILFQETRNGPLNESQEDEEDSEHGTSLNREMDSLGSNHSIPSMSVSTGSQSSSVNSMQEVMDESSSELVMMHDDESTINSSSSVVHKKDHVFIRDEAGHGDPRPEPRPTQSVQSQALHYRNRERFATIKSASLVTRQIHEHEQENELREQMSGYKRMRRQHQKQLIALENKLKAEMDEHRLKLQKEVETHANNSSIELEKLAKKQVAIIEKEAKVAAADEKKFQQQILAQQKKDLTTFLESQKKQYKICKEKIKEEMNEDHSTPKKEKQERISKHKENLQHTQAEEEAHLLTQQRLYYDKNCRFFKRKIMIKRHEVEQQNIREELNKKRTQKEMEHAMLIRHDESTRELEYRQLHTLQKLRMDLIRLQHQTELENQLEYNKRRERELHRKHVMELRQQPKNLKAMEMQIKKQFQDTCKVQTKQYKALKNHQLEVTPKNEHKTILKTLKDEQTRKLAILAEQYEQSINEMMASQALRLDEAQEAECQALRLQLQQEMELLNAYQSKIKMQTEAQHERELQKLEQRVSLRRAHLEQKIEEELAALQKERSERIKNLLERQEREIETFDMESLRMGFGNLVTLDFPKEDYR
Chain of UniProt Q9P286 (whole entry, looked up): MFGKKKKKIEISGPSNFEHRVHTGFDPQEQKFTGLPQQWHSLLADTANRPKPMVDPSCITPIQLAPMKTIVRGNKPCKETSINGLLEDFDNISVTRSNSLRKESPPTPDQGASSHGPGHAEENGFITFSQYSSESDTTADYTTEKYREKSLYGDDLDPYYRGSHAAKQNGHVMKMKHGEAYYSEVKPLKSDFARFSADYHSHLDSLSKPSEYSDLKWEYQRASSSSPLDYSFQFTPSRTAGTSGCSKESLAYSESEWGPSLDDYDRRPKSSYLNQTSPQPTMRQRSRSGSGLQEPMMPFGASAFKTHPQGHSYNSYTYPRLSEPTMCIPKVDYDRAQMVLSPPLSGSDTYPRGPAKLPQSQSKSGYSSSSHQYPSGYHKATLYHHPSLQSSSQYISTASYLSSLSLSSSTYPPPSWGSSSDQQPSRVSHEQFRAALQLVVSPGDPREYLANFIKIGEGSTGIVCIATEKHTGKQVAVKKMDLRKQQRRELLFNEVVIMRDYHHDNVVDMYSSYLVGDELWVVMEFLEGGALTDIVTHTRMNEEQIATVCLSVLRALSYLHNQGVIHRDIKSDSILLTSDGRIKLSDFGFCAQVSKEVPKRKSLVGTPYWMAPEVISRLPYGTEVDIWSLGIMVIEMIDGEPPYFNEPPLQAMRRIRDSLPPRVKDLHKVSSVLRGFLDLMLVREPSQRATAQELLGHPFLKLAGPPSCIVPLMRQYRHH
Chain of UniProt P51812 (whole entry, looked up): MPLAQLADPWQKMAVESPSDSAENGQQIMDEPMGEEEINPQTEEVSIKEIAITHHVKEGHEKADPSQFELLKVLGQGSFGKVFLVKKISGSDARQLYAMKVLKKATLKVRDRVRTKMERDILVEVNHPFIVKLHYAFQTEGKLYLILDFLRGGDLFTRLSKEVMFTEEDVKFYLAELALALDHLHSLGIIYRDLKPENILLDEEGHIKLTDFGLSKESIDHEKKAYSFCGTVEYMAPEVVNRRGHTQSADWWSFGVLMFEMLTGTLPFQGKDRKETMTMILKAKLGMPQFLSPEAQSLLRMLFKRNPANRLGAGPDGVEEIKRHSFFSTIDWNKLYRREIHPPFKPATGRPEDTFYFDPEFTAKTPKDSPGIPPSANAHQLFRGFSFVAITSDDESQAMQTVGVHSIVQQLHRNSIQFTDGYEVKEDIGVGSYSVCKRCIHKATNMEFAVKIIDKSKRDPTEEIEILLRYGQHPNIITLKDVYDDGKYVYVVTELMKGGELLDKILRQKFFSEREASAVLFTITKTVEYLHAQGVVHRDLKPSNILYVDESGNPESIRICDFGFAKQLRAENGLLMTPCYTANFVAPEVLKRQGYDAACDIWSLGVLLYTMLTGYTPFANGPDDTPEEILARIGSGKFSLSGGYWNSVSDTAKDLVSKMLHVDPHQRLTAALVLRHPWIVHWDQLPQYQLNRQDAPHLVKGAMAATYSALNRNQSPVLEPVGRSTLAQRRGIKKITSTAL

Sample 1
Compound: CCCN1C(=O)C(O)(C(=O)O)Oc2cc(F)ccc21 (stereo not shown)
organism | test | system | conditions | how to read | inhibition
Arabidopsis thaliana | root length | Col-0, seedlings | 3.125 µg/mL | reference: water control | 9.42%
Arabidopsis thaliana | hypocotyl length | Col-0 | 50.0 µg/mL, 7 days, seed germination, dark |  | 47.7%
Arabidopsis thaliana | hypocotyl length | Col-0, seedlings | 6.25 µg/mL |  | 10.9%
Arabidopsis thaliana | root length | Col-0, seedlings | 12.5 µg/mL | reference: water control | 30.8%
Arabidopsis thaliana | root length | Col-0 | 3.13 µg/mL, 7 days, seed germination, dark |  | 9.4%
Arabidopsis thaliana | root length | Col-0, seedlings | 100 µg/mL |  | 89.2%
Arabidopsis thaliana | hypocotyl length | Col-0 | 3.125 µg/mL, 7 days, seed germination, dark |  | 5.3%
Alopecurus japonicus | fresh weight |  | 150 g ai/ha, pre-emergence treatment |  | 37.1% and 38.7% and 35.2%
Echinochloa crus-galli | fresh weight |  | 150 g ai/ha, post-emergence treatment |  | 40.5% and 44% and 43.3%
Eclipta prostrata | fresh weight |  | 150 g ai/ha, post-emergence treatment |  | 75.6% and 73.5% and 73.2%
Arabidopsis thaliana | root length | Col-0, seedlings | 100 µg/mL | reference: water control | 89.2%
Arabidopsis thaliana | hypocotyl length | Col-0, seedlings | 25 µg/mL |  | 28.9%
Arabidopsis thaliana | root length | Col-0 | 50.0 µg/mL, 7 days, seed germination, dark |  | 65.5%

Sample 2
SMILES: C[C@@H]1CN(c2ccc(-c3cc(C(=O)NCCOCCOCCOCCOCCNC(=O)Cn4cc(-c5[nH]cc(C(=O)N[C@@H](CC(N)=O)c6ccc(F)c(Cl)c6)c5-c5ccc(Cl)cc5F)cn4)ccc3F)cc2NC(=O)c2c[nH]c(=O)cc2C(F)(F)F)C[C@H](C)N1C
Observed: thermal unfolding
Technique: differential scanning fluorimetry
Tested at: 5.5 µM
Direction: higher = more unfolded
DCAF1: DDB1- and CUL4-associated factor 1 (DCAF1, Homo sapiens, UniProt Q9Y4B6)
Chain of UniProt Q9Y4B6 (whole entry, looked up): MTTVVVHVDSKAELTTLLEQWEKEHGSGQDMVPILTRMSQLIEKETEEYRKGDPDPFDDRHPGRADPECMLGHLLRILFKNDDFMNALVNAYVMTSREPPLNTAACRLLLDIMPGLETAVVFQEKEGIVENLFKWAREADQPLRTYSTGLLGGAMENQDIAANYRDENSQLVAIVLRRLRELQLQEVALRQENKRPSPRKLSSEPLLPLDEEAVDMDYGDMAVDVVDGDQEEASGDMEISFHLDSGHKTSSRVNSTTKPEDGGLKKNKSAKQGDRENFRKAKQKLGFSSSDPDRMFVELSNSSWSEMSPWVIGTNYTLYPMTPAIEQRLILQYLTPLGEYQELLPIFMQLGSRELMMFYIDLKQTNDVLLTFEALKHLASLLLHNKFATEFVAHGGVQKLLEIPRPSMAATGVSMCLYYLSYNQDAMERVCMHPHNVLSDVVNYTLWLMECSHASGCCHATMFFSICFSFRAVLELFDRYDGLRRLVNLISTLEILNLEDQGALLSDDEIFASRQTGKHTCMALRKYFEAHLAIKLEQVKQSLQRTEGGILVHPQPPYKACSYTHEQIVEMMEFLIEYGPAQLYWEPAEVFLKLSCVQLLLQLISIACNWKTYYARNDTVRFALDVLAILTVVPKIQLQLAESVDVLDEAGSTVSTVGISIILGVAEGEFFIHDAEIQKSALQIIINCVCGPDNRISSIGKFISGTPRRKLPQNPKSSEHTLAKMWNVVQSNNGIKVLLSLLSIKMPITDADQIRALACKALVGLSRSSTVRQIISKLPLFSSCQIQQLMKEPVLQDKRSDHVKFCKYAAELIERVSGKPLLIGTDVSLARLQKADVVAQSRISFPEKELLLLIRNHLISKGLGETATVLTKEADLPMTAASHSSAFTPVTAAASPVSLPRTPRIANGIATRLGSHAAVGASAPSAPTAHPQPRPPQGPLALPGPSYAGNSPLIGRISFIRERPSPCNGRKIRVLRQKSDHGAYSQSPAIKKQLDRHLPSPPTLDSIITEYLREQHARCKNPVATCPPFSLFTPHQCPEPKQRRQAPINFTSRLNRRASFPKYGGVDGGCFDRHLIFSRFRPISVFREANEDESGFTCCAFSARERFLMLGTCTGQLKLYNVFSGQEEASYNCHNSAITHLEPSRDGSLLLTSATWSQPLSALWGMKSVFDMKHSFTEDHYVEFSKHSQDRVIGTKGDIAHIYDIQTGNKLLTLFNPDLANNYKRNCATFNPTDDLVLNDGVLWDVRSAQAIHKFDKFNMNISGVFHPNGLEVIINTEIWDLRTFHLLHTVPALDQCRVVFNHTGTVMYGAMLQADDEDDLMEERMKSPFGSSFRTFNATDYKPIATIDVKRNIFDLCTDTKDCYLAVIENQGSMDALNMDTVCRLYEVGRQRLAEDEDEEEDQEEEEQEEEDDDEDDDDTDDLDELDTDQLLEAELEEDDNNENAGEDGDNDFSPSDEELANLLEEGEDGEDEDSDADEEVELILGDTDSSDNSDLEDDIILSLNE
target | temperature | SYPRO Orange fluorescence
DCAF1 | 77.81 °C | 46100 a.u.
DCAF1 | 69.21 °C | 55200 a.u.
DCAF1 | 38.2 °C | 9710 a.u.
DCAF1 | 84.01 °C | 40800 a.u.
DCAF1 | 48.8 °C | 13800 a.u.
DCAF1 | 54.21 °C | 18100 a.u.
WDR5 (Homo sapiens, UniProt P61964) | 33.4 °C | 14300 a.u.

Sample 3
Structure (SMILES): Cc1ccc(O)c(C)c1-c1cnc2[nH]c(-c3cnc(N4CCC5(CC4)CC(N4CCN(c6ccc(N[C@H]7CCC(=O)NC7=O)cc6F)CC4)CO5)nc3)cc2c1C#N (single isomer, unassigned)
PKMYT1: Membrane-associated tyrosine- and threonine-specific cdc2-inhibitory kinase (PKMYT1, Homo sapiens, UniProt Q99640)
Chain of UniProt Q99640 (whole entry, looked up): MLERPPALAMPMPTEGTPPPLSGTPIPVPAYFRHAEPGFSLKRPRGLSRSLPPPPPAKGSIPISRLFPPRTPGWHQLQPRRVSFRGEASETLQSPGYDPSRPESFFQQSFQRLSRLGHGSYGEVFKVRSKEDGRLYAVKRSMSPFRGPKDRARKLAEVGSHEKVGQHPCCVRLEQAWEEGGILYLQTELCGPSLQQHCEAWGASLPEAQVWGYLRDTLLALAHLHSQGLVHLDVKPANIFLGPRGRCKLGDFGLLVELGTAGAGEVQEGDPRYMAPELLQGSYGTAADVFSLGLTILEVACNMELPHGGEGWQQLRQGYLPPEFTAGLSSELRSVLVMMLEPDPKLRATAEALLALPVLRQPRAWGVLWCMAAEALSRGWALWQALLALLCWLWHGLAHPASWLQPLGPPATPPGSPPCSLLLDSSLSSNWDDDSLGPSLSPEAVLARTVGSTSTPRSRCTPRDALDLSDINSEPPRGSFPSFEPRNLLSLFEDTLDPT
tested on | test | system | conditions | degradation
 | automated immunoblotting, item: PKMYT1 | mouse, HCC1569 xenograft, tumour | dose not given, 144 h | 72.1% and 60.2% and 64.7% and 68.9% and 75.3% and 70.4%
PKMYT1 | degrader, automated immunoblot (Jess) | HCC1569 | 1 nM, 2 h | 12.7%
PKMYT1 | degrader, automated immunoblot (Jess) | HCC1569 | 100 nM, 8 h | 92.9%
PKMYT1 | degrader, automated immunoblot (Jess) | HCC1569 | 111.11 nM, 24 h | 90.1%
PKMYT1 | degrader, automated immunoblot (Jess) | HCC1569 | 12.35 nM, 24 h | 88%
PKMYT1 | degrader, automated immunoblot | HCC1569 | 10 nM | 78.3% and 79.1% and 79%
PKMYT1 | degrader, automated immunoblot (Jess) | HCC1569 | 0.46 nM, 24 h | 40.2%
PKMYT1 | degrader, automated immunoblot (Jess) | HCC1569 | 1000 nM, 24 h | 77.5%
PKMYT1 | degrader, automated immunoblot (Jess) | HCC1569 | 0.15 nM, 24 h | 13.8%

Sample 4
SMILES: CCC1(c2cccc(-c3cn(C)nc3C)c2)C2=C(Nc3n[nH]cc31)C(F)C(C)(C)CC2=O (single isomer, unassigned)
Tested at: 1 µM
target | observed | technique | reference | remaining binding [%]
PAK4 (Homo sapiens, UniProt O96013) | kinase binding | KINOMEscan | DMSO control | 100
PIK3CB (Homo sapiens, UniProt P42338) | binding | competition with immobilised ligand |  | 100
IGF1R (Homo sapiens, UniProt P08069) | binding | competition with immobilised ligand |  | 92
Ribosomal protein S6 kinase alpha-3, C-terminal kinase domain (RPS6KA3, Homo sapiens, UniProt P51812) | binding | competition with immobilised ligand |  | 59
STK24 (Homo sapiens, UniProt Q9Y6E0) | kinase binding | KINOMEscan | DMSO control | 100
CILK1 (Homo sapiens, UniProt Q9UPZ9) | kinase binding | KINOMEscan | DMSO control | 87
CDPK1 (Plasmodium falciparum, UniProt P62344) | binding | competition with immobilised ligand |  | 67
Tyrosine-protein kinase ABL1, phosphorylated (ABL1, Homo sapiens, UniProt P00519, Q252H) | binding | competition with immobilised ligand |  | 64
TAOK3 (Homo sapiens, UniProt Q9H2K8) | kinase binding | KINOMEscan | DMSO control | 96
STK10 (Homo sapiens, UniProt O94804) | kinase binding | KINOMEscan | DMSO control | 99
RIOK3 (Homo sapiens, UniProt O14730) | binding | competition with immobilised ligand |  | 95
MET (Homo sapiens, UniProt P08581, M1250T) | kinase binding | KINOMEscan | DMSO control | 100
PAK5 (Homo sapiens, UniProt Q9P286) | binding | competition with immobilised ligand |  | 66
EIF2AK1 (Homo sapiens, UniProt Q9BQI3) | kinase binding | KINOMEscan | DMSO control | 100

Excerpt of the above (sample 1):
organism | test | system | conditions | how to read | inhibition
Arabidopsis thaliana | root length | Col-0, seedlings | 100 µg/mL |  | 89.2%
Arabidopsis thaliana | hypocotyl length | Col-0 | 3.125 µg/mL, 7 days, seed germination, dark |  | 5.3%
Alopecurus japonicus | fresh weight |  | 150 g ai/ha, pre-emergence treatment |  | 37.1% and 38.7% and 35.2%
Echinochloa crus-galli | fresh weight |  | 150 g ai/ha, post-emergence treatment |  | 40.5% and 44% and 43.3%
Eclipta prostrata | fresh weight |  | 150 g ai/ha, post-emergence treatment |  | 75.6% and 73.5% and 73.2%
